Published values of several laboratories.
Compare with care: the assays were run in different laboratories. Numbers after ± are the reported error. Values after ≈ are worked out from the molar mass of the structure shown.

Compound | organism | assay | test system | setting | scale | quantity | result
CC[P+](CC)(CC)[Au-][S][C@@H]1O[C@H](COC(C)=O)[C@@H](O[C@H]2O[C@H](COC(C)=O)[C@@H](OC(C)=O)[C@H](OC(C)=O)[C@H]2OC(C)=O)[C@H](OC(C)=O)[C@H]1OC(C)=O | Enterococcus faecium | – | ATCC 700221 | concentration not given | relative to: auranofin | fold activity enhancement | 2 to 4
CCOC(=O)C1=C(C)NC2=C(C(=O)CC(C)(C)C2)C1c1ccc(OCC(=O)NN=Cc2cccc([N+](=O)[O-])c2)cc1OCC(=O)NN=Cc1cccc([N+](=O)[O-])c1 (stereo not drawn) | Brevibacillus brevis | – | – | concentration not given, 24 h, 37 °C | – | inhibition zone diameter | 6.1 ± 0.1 mm
O=C(Nc1ccccc1Nc1ccccc1)c1cccnc1Br | Valsa mali | mycelial growth, mycelial growth rate method | – | 50 mg/L | – | inhibition | 4.55%
Nc1ncnc2c(CN3C[C@H](CSc4cnccn4)[C@@H](O)C3)c[nH]c12 | Helicobacter pylori | growth | horse blood agar | – | – | IC90 | ~10 ng/mL (≈ 0.028 µM)
CC1(CCCCCCCCCCCCOCCCOP(=O)(O)CO[C@H](CO)Cn2ccc(N)nc2=O)COC1 | human gammaherpesvirus 8 | qPCR | BCBL-1 | – | relative to: CC50 over EC50 | selectivity index | > 1670
CCOC(=O)C1=C(C)NC2=C(C(=O)CC(C)(C)C2)C1c1ccc(OCC(=O)NN=Cc2cc(Br)c(O)c(Br)c2)cc1OCC(=O)NN=Cc1cc(Br)c(O)c(Br)c1 (stereo not drawn) | Proteus vulgaris | – | FMC II | concentration not given, 24 h, 37 °C | – | inhibition zone diameter | 5.6 ± 0.3 mm
CC1(CCCCCCCCCCOCCCOP(=O)(O)CO[C@H](CO)Cn2ccc(N)nc2=O)COC1 | Murid betaherpesvirus 1 | qPCR | MEF, Smith | – | relative to: CC50 over EC50 | selectivity index | > 2
CN[C@H](CC(C)C)C(=O)N[C@H]1C(=O)N[C@@H](CC(N)=O)C(=O)N[C@H]2C(=O)N[C@H]3C(=O)N[C@H](C(=O)N[C@H](C(=O)O)c4cc(O)cc(O)c4-c4cc3ccc4O)[C@H](O)c3ccc(c(Cl)c3)Oc3cc2cc(c3O[C@@H]2O[C@H](CO)[C@@H](O)[C@H](O)[C@H]2O[C@H]2C[C@](C)(NCc3ccc(C(=O)OCCCCCCN(Cc4ccccn4)Cc4ccccn4)cc3)[C@H](O)[C@H](C)O2)Oc2ccc(cc2Cl)[C@H]1O | Bacillus subtilis | protein synthesis, measured: RpsC | 168 | concentration not given, 10 min, at peak effective concentration | relative to: untreated | regulation factor | 11.4 ± 12.7
CCCSC[C@H]1CN(Cc2c[nH]c3c(N)ncnc23)C[C@@H]1O | Helicobacter pylori | growth | horse blood agar | – | – | IC90 | ~10 ng/mL (≈ 0.0311 µM)

A few entries again:
Compound | organism | assay | test system | setting | scale | quantity | result
CCOC(=O)C1=C(C)NC2=C(C(=O)CC(C)(C)C2)C1c1ccc(OCC(=O)NN=Cc2cccc([N+](=O)[O-])c2)cc1OCC(=O)NN=Cc1cccc([N+](=O)[O-])c1 (stereo not drawn) | Brevibacillus brevis | – | – | concentration not given, 24 h, 37 °C | – | inhibition zone diameter | 6.1 ± 0.1 mm
